Experimental data collected from several papers.
Lines come from different studies, so protocols differ. ± marks the error that the study gave.
Chain of UniProt P06276 (whole entry, looked up): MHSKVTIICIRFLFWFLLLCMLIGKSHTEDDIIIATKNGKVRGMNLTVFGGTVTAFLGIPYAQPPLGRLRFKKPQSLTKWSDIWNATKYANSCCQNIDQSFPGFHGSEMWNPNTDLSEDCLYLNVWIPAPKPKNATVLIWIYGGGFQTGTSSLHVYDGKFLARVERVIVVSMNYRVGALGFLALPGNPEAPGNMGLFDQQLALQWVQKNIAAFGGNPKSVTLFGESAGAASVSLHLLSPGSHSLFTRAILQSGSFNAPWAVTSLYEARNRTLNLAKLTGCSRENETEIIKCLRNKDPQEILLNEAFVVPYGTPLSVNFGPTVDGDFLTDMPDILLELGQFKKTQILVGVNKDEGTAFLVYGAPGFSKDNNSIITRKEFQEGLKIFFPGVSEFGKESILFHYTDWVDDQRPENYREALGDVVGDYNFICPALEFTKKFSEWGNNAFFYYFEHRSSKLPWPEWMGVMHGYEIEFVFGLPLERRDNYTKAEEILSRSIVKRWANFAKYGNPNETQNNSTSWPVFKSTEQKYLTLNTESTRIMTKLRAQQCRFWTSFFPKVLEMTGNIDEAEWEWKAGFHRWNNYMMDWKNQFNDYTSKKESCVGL
Chain of UniProt P40926 (whole entry, looked up): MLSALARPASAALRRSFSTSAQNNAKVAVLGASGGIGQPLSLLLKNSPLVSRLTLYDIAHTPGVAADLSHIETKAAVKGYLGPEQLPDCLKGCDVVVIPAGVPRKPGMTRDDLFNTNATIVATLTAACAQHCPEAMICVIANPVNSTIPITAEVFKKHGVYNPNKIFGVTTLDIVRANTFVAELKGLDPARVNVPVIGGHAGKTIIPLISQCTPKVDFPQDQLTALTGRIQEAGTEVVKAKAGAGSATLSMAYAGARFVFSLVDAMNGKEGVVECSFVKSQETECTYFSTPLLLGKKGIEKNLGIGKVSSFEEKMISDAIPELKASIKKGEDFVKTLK

Structure (SMILES) = Clc1ccc(-c2ccccc2)cc1; system = rat Sprague-Dawley female, serum; setting = inhalation, 23 µg/rat, 2 h; endpoint = serum CO2; result = 17 ± 4 mmol/L
Structure (SMILES) = CN(C)CCC(c1ccccc1)c1ccccn1 (stereo not shown); target or system = Plasmodium falciparum; system = GB4; endpoint = IC50; result = 5.01 µM
Structure (SMILES) = CN[C@H]1CC[C@@H](c2ccc(Cl)c(Cl)c2)c2ccccc21; system = CD-1 mouse, male, plasma; setting = intraperitoneal, 0.3 mg/kg; endpoint = AUC(0-t); result = 16.3 ng·h/mL
Structure (SMILES) = COc1ccc(C[C@@H]2NC(=O)[C@H]([C@@H](C)O)NC(=O)[C@@H]3[C@@H]4CCN3C(=O)[C@@H]3Cc5cn(c6ccc(F)cc56)CCCCCCN(Cc5ccc(cc5)CCNC(=O)[C@]5(C)CCCN5C2=O)C(=O)CCC(=O)N[C@@H](C)C(=O)N[C@H](CNC(=O)CCCCC[N+](C)(C)C)C(=O)N[C@@H](Cc2cccc(c2)CNC(=O)CO4)C(=O)N3)cc1; assay = refers to: Dyspepsia; system = humans; setting = concentration not given, Study-001; endpoint = participants with adverse event; result = 3.9%
Structure (SMILES) = CC(C)C[C@@H]1NC(=O)CNC(=O)[C@H](CC(N)=O)NC(=O)[C@H](CCCNC(=N)N)NC(=O)[C@H]([C@@H](C)O)NC(=O)[C@@H]2CSSC[C@@H]3NC(=O)[C@H]([C@@H](C)O)NC(=O)CNC(=O)CNC(=O)[C@H](C(C)C)NC(=O)[C@@H]4CSSC[C@H](NC(=O)[C@H]([C@@H](C)O)NC(=O)[C@H](CSSC[C@H](NC(=O)[C@H](C(C)C)NC(=O)[C@@H]5CCCN5C1=O)C(=O)NCC(=O)N[C@@H](CCCCN)C(=O)N[C@@H]([C@@H](C)O)C(=O)N4)NC(=O)CNC(=O)[C@@H]1CCCN1C(=O)[C@H]([C@@H](C)O)NC(=O)[C@H](CC(N)=O)NC3=O)C(=O)N[C@@H](CO)C(=O)N[C@@H](Cc1c[nH]c3ccccc13)C(=O)N1CCC[C@H]1C(=O)N[C@@H](C(C)C)C(=O)N2; assay = HPLC; system = ammonium bicarbonate 0.1 M; setting = 180 µM, 14 days, pH 9.0, 37 °C, deamidation stability; endpoint = remaining peptide; result = 0%
Structure (SMILES) = CO[C@H]1C[C@@H]2CC[C@@H](C)[C@@](O)(O2)C(=O)C(=O)N2CCCC[C@H]2C(=O)O[C@H]([C@H](C)C[C@@H]2CC[C@@H](OC(=O)NCCOCCOCCOCCOCCOCCOCCOCCOCCC(=O)N3CCc4cc(Cn5nc(-c6ccc7oc(N)nc7c6)c6c(N)ncnc65)ccc4C3)[C@H](OC)C2)C[C@@H](O)[C@H](C)/C=C(\C)[C@@H](O)[C@@H](OC)C(=O)[C@H](C)C[C@H](C)/C=C/C=C/C=C/1C; system = patients with advanced solid tumours; setting = intravenous, 12 mg weekly, any grade; endpoint = anaemia incidence; result = 8.3%
Structure (SMILES) = COc1cccc2c1CCCC2CCCN1CCN(C2CCCCC2)CC1 (stereo not shown); system = CD-1 mouse, male, plasma; setting = intraperitoneal, 30 mg/kg; endpoint = elimination rate constant; result = 6.03e-05 s⁻¹
Structure (SMILES) = C[C@@H](NC(=O)N1C(=O)[C@H](Cc2ccnc(N)c2)[C@H]1C(=O)O)C1CCCCC1; system = healthy Chinese adult volunteers; setting = continuous intravenous infusion, dose not given, 5.0 days, CTCAE 5.0, all doses; endpoint = decreased hemoglobin; result = 5%
Structure (SMILES) = c1cc2ccc3cccc4ccc(c1)c2c34; system = PDMS-water partitioning; setting = PAH compilation; endpoint = literature range of log K; result = 4.22 to 4.73 log units
Structure (SMILES) = NC(=O)c1cccc(-c2cc(OC(=O)NC3CCCCC3)ccc2O)c1; system = mouse; setting = intravenous, 10 mg/kg; endpoint = elimination half-life; result = 1.6 h
Structure (SMILES) = CC(C)CC(=O)OC[C@H]1O[C@@](C#N)(c2ccc3c(N)ncnn23)[C@H](O)[C@@H]1O; system = Sprague-Dawley rat, male, faeces; setting = 80 mg/kg, time not given; scale = reference: dose; endpoint = recovery in faeces; result = 0.0767%
Structure (SMILES) = CN1CC[C@@H](c2c(O)cc(O)c3c(=O)cc(-c4ccc(C(F)(F)F)cc4Cl)oc23)[C@@H]1CO; assay = refers to: Dyspnea; system = B-cell malignancies; setting = oral, 200 mg, intermittent dosing; endpoint = patients with adverse event; result = 0%
Structure (SMILES) = CC[C@H](C)[C@H](NC(=O)[C@H](Cc1ccccc1)NC(=O)[C@H](CCC(=O)O)NC(=O)[C@H](CCCNC(=N)N)NC(=O)[C@H](C)NC(=O)[C@H](C)NC(=O)[C@H](CCC(N)=O)NC(=O)[C@H](CCC(=O)O)NC(=O)[C@H](CCC(=O)O)NC(=O)[C@H](CC(C)C)NC(=O)[C@H](Cc1ccc(O)cc1)NC(=O)[C@H](CO)NC(=O)[C@H](CO)NC(=O)[C@@H](NC(=O)[C@H](CC(=O)O)NC(=O)[C@H](CO)NC(=O)[C@@H](NC(=O)[C@H](Cc1ccccc1)NC(=O)[C@@H](NC(=O)CNC(=O)[C@H](CCC(=O)O)NC(=O)[C@H](C)NC(=O)CCc1cnc[nH]1)[C@@H](C)O)[C@@H](C)O)C(C)C)C(=O)N[C@@H](C)C(=O)N[C@@H](Cc1c[nH]c2ccccc12)C(=O)N[C@@H](CC(C)C)C(=O)N[C@H](C(=O)N[C@@H](CCCNC(=N)N)C(=O)NCC(=O)N[C@@H](CCCNC(=N)N)C(=O)N[C@@H](CCCCNC(=O)COCCOCCNC(=O)COCCOCCNC(=O)CC[C@H](NC(=O)CCCCCCCCCCCCCCCCC(=O)O)C(=O)O)C(=O)NCC(=O)NCC(=O)N[C@@H](CO)C(=O)N[C@@H](CCCCNC(=O)[C@H](CCCCNc1c(NCCCCCN(O)C(=O)CCC(=O)NCCCCCN(O)C(=O)CCC(=O)NCCCCCN(O)C(C)=O)c(=O)c1=O)Nc1c(NCCCCCN(O)C(=O)CCC(=O)NCCCCCN(O)C(=O)CCC(=O)NCCCCCN(O)C(C)=O)c(=O)c1=O)C(=O)O)C(C)C [zirconium-89 labelled]; assay = ex vivo gamma counting; system = male Sprague-Dawley rats, spleen; setting = intravenous, 1 nmol, 24 h; endpoint = tissue uptake; result = 0.574 %ID/g
Structure (SMILES) = Clc1ccc(Cl)c(-c2cc(Cl)c(Cl)cc2Cl)c1; system = fresh water; setting = 20 °C, S30-2 sampler, 30 µm; endpoint = log K(PDMS-water); result = 6.03 ± 0.02
Structure (SMILES) = CC(C)C[C@H](NC(=O)[C@H](CCCCN)NC(=O)OCC1c2ccccc2-c2ccccc21)C(=O)N[C@H](C(=O)N[C@@H](Cc1ccccc1)C(=O)N[C@@H](Cc1ccccc1)C(=O)N[C@@H](CCCCN)C(=O)NCC(=O)N[C@@H](Cc1ccccc1)C(=O)N[C@@H](C)C(=O)N[C@@H](Cc1c[nH]c2ccccc12)C(=O)N[C@@H](CC(N)=O)C(=O)N[C@H](C(=O)N[C@H]1CSSC[C@@H](C(=O)N[C@@H](Cc2c[nH]cn2)C(=O)N[C@@H](CCCNC(=N)N)C(=O)N[C@@H](CCCNC(=N)N)C(=O)N[C@@H](C)C(=O)N[C@@H](CC(N)=O)C(N)=O)NC(=O)[C@H](C(C)C)NC(=O)[C@H](CCCNC(=N)N)NC(=O)[C@H](C(C)C)NC(=O)CNC(=O)[C@H](CC(N)=O)NC(=O)[C@H](CCCNC(=N)N)NC(=O)[C@H](Cc2ccc(O)cc2)NC(=O)[C@H](C(C)C)NC1=O)C(C)C)C(C)C; system = ICR mice, blood; setting = intraperitoneal, 5 mg/kg, day 5; endpoint = eosinophils; result = 2.33 ± 0.16%
Structure (SMILES) = CN(C(=O)n1cnc(-c2ccc[n+]([O-])c2)c1)C1CCCCC1; system = Wistar rat, cerebral cortex; setting = oral, 10 mg/kg, 4 h, single dose; endpoint = concentration; result = 80.3 ± 26.8 ng/g
Structure (SMILES) = C=CC(=O)Nc1cc(Nc2nccc(Nc3cc(Cl)c(F)cc3C(C)(C)O)n2)c(OC)cc1N1CC[C@@H](N(C)C)C1; system = human patients; setting = oral, 400 mg, treatment-emergent adverse events; endpoint = patients with rash; result = 70%
Structure (SMILES) = COc1ccnc(C(=O)N[C@H]2COC(=O)[C@H](Cc3ccccc3)[C@@H](OC(=O)C(C)C)[C@H](C)OC2=O)c1OCOC(=O)C(C)C; assay = soil adsorption; system = tested soils; setting = geometric mean; endpoint = KFoc; result = 5780 mL/g
Structure (SMILES) = NC(=O)[C@H]1CCN(c2ncnc(N)c2F)C[C@@H]1N1CCC[C@@H](Nc2cc(Cl)cc(C(F)(F)F)c2)C1=O; system = B-cell malignancy patients; setting = oral, 328 mg twice daily, dose; endpoint = grade ≥3 bilirubin increase; result = 0%
Structure (SMILES) = Cn1cc(C(F)(F)F)nc1-c1ccc(OCC(O)CNCCOc2ccc(O)c(C(N)=O)c2)cc1 (stereo not shown); target or system = Plasmodium falciparum; system = HB3; endpoint = IC50; result = 7.94 µM
Structure (SMILES) = CN1CCN(c2ccc(Nc3nccc(-c4cccnc4)n3)cc2C(F)(F)F)CC1; system = zebrafish embryos; setting = 50 µM, 5 d; endpoint = toxicity; result = 4.9 ± 4.9%
Structure (SMILES) = CC(C)[C@H](O)C(=O)N[C@H]1Cc2ccc3c(c2)[C@]2(C4=C(c5nc(CO)co5)N=C(O4)[C@H](C(C)(C)C)NC1=O)c1cc(F)ccc1N[C@@H]2O3; system = NSG mice, heart; setting = intravenous, 10 mg/kg, single dose at MTD, together with: paclitaxel 40 mg/kg; endpoint = terminal half-life; result = 0.8 h
Structure (SMILES) = CCOc1cc(Oc2ccc(C(F)(F)F)cc2Cl)ccc1[N+](=O)[O-]; system = rat, female; setting = 500 mg/kg, 4 days; endpoint = body weight gain; result = 25%
Structure (SMILES) = C[C@H]1CN(c2n[nH]c3nc(N[C@H]4CC[C@H](NS(=O)(=O)CCC(F)(F)F)CC4)ncc23)CCO1; target or system = MDH2 (Homo sapiens, UniProt P40926); assay = inhibitor, Kinobeads competition profiling; setting = 20 µM; scale = reference: vehicle; endpoint = relative abundance; result = 1.19
Structure (SMILES) = O=S(=O)(Nc1ccccc1)c1ccc(NC(=S)Nc2ccccc2)cc1; assay = refers to: MO%; system = male mouse, blood; setting = oral, 5 mg/kg daily, 14 days; endpoint = blood cell fraction; result = 4.58%
Structure (SMILES) = Clc1ccc(-c2ccc(Cl)c(Cl)c2)cc1Cl; system = polyethylene-water partitioning; setting = PCB compilation; scale = reference: maximum over minimum K; endpoint = literature range factor; result = 2
Structure (SMILES) = C[C@@H](N[C@H]1CCCC[C@@H]1NC(=O)c1ccc(Cl)cc1)c1cccc2ccccc12; target or system = Cholinesterase (BCHE, Homo sapiens, UniProt P06276); assay = inhibitor, fluorometric; endpoint = IC50; result = 14.6 ± 4.12 µM
Structure (SMILES) = CCc1ccc(CC/C=C/c2ccc3c(c2)C(=O)CC3)cc1; system = Sprague-Dawley rat, female; setting = oral, 450 mg/kg/day, 14 days; endpoint = Glucose; result = 6.58 mM
Structure (SMILES) = COc1cc2c(Oc3ccc4[nH]c(C)cc4c3F)ccnc2cc1OCC1(N)CC1; system = paediatric recurrent refractory sarcoma; setting = 10 mg; endpoint = grade 1 or 2 Hypothyroidism; result = 100%
Structure (SMILES) = O=C(Nc1ccccc1)C1CCN(C(=O)Oc2cccnc2)CC1; system = healthy women; setting = oral, 20 mg, 7 days; endpoint = adverse event Erythema; result = 7.1%
Structure (SMILES) = O=C1Nc2cc3[nH]nc(-c4ccncc4)c3cc2CN1Cc1ccccc1; assay = CTCAE v4.03; system = advanced solid tumour patients; setting = intravenous, 9.6 mg/kg, schedules 1/2; endpoint = patients with abdominal pain; result = 0%

Excerpt of the above:
Structure (SMILES) = CC(C)C[C@@H]1NC(=O)CNC(=O)[C@H](CC(N)=O)NC(=O)[C@H](CCCNC(=N)N)NC(=O)[C@H]([C@@H](C)O)NC(=O)[C@@H]2CSSC[C@@H]3NC(=O)[C@H]([C@@H](C)O)NC(=O)CNC(=O)CNC(=O)[C@H](C(C)C)NC(=O)[C@@H]4CSSC[C@H](NC(=O)[C@H]([C@@H](C)O)NC(=O)[C@H](CSSC[C@H](NC(=O)[C@H](C(C)C)NC(=O)[C@@H]5CCCN5C1=O)C(=O)NCC(=O)N[C@@H](CCCCN)C(=O)N[C@@H]([C@@H](C)O)C(=O)N4)NC(=O)CNC(=O)[C@@H]1CCCN1C(=O)[C@H]([C@@H](C)O)NC(=O)[C@H](CC(N)=O)NC3=O)C(=O)N[C@@H](CO)C(=O)N[C@@H](Cc1c[nH]c3ccccc13)C(=O)N1CCC[C@H]1C(=O)N[C@@H](C(C)C)C(=O)N2; assay = HPLC; system = ammonium bicarbonate 0.1 M; setting = 180 µM, 14 days, pH 9.0, 37 °C, deamidation stability; endpoint = remaining peptide; result = 0%
Structure (SMILES) = CO[C@H]1C[C@@H]2CC[C@@H](C)[C@@](O)(O2)C(=O)C(=O)N2CCCC[C@H]2C(=O)O[C@H]([C@H](C)C[C@@H]2CC[C@@H](OC(=O)NCCOCCOCCOCCOCCOCCOCCOCCOCCC(=O)N3CCc4cc(Cn5nc(-c6ccc7oc(N)nc7c6)c6c(N)ncnc65)ccc4C3)[C@H](OC)C2)C[C@@H](O)[C@H](C)/C=C(\C)[C@@H](O)[C@@H](OC)C(=O)[C@H](C)C[C@H](C)/C=C/C=C/C=C/1C; system = patients with advanced solid tumours; setting = intravenous, 12 mg weekly, any grade; endpoint = anaemia incidence; result = 8.3%
Structure (SMILES) = COc1cccc2c1CCCC2CCCN1CCN(C2CCCCC2)CC1 (stereo not shown); system = CD-1 mouse, male, plasma; setting = intraperitoneal, 30 mg/kg; endpoint = elimination rate constant; result = 6.03e-05 s⁻¹
Structure (SMILES) = C[C@@H](NC(=O)N1C(=O)[C@H](Cc2ccnc(N)c2)[C@H]1C(=O)O)C1CCCCC1; system = healthy Chinese adult volunteers; setting = continuous intravenous infusion, dose not given, 5.0 days, CTCAE 5.0, all doses; endpoint = decreased hemoglobin; result = 5%
Structure (SMILES) = c1cc2ccc3cccc4ccc(c1)c2c34; system = PDMS-water partitioning; setting = PAH compilation; endpoint = literature range of log K; result = 4.22 to 4.73 log units
